Published values gathered from unrelated publications.
Lines come from different studies, so protocols differ. Values joined by “and” are separate records of one study, mostly repeats; a detail may differ. ± marks the error that the study gave.
FABP1: Fatty acid-binding protein, liver (FABP1, Homo sapiens, UniProt P07148)
UniProt P07148, sequence (whole entry, looked up): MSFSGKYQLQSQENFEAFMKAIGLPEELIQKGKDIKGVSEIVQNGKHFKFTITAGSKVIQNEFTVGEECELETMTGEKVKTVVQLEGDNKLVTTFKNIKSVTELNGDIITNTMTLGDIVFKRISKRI
sdiA: Regulatory protein SdiA (sdiA, Escherichia coli, UniProt P07026)
UniProt P07026, sequence (whole entry, looked up): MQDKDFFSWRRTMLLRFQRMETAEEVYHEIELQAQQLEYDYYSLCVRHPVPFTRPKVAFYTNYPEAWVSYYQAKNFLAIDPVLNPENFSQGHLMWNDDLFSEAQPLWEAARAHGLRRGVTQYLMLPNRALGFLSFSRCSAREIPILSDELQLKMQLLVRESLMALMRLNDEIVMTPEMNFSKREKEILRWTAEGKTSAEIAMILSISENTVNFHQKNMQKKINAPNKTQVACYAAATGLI
UniProt A5GZW8, sequence (whole entry, looked up): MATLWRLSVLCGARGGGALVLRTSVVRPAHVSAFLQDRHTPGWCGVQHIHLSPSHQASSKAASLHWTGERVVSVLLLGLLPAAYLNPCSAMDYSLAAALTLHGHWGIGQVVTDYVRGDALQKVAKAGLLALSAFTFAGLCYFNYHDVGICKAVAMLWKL
UniProt Q007T0, sequence (whole entry, looked up): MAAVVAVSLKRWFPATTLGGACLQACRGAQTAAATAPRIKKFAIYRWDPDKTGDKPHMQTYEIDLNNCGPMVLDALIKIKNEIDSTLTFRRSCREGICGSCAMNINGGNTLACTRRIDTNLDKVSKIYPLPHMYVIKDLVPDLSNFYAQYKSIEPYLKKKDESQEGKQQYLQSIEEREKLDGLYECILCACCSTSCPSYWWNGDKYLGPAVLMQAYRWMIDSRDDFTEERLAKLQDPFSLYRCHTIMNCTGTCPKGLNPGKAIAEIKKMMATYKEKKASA
UniProt D0VWV4, sequence (whole entry, looked up): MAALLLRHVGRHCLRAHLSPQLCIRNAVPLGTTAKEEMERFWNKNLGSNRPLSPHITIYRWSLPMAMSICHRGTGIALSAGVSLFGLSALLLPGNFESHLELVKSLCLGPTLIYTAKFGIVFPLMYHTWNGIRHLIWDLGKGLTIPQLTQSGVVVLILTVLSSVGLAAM
UniProt Q96CP6, sequence (whole entry, looked up): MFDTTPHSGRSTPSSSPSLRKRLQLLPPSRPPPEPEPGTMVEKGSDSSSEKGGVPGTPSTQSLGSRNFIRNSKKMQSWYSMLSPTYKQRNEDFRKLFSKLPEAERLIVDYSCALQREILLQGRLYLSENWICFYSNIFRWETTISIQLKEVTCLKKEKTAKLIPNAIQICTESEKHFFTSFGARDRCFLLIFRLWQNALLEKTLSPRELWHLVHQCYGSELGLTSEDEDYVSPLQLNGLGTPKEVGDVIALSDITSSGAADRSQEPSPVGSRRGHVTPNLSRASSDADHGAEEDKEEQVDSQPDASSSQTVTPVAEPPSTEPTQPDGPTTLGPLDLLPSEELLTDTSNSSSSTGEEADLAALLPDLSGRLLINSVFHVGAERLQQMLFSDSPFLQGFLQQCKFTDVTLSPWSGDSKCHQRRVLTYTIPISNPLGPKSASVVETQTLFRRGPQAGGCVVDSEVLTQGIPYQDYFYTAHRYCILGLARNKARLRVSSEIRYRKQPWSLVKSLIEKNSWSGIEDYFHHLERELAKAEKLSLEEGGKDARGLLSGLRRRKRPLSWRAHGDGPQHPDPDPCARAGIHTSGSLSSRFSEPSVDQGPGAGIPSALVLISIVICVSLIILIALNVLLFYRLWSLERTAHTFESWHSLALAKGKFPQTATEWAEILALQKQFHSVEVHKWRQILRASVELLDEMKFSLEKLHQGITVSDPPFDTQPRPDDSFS
UniProt P53355, sequence (whole entry, looked up): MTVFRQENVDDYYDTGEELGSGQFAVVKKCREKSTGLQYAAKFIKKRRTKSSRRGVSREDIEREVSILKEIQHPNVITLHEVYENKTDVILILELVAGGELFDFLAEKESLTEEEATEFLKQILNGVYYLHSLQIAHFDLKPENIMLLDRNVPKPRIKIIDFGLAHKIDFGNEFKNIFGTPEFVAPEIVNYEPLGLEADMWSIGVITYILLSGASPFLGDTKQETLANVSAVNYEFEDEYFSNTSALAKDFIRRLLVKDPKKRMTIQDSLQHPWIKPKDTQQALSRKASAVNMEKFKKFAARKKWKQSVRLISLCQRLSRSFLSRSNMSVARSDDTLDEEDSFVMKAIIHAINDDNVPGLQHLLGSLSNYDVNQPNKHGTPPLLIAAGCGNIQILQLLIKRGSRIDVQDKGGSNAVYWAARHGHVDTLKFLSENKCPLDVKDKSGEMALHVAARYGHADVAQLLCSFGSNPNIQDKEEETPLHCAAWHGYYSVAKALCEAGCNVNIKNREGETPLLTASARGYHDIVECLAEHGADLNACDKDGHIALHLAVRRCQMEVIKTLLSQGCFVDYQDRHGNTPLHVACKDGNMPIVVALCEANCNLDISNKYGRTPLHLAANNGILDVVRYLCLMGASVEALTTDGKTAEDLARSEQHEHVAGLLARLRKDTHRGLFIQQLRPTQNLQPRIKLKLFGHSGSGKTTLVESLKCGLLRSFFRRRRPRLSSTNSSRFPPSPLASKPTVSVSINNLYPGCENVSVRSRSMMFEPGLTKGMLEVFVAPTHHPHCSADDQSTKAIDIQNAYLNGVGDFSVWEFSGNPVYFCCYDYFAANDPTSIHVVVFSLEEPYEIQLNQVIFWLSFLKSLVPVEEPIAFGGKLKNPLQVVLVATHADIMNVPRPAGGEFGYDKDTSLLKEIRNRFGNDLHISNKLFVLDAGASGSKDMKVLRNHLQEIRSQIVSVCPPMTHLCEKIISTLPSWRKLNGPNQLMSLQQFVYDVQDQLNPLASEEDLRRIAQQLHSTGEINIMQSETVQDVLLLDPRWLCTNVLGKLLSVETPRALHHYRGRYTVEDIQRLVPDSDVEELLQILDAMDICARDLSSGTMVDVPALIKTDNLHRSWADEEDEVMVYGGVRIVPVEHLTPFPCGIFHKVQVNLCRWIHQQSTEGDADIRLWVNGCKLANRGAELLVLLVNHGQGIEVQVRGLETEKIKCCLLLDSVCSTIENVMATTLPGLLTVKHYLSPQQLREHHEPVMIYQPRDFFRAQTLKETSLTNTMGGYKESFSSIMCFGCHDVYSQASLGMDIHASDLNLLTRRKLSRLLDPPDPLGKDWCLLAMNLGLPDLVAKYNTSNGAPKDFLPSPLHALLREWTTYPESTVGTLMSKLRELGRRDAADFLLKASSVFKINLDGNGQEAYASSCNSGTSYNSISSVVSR
UniProt P30518, sequence (whole entry, looked up): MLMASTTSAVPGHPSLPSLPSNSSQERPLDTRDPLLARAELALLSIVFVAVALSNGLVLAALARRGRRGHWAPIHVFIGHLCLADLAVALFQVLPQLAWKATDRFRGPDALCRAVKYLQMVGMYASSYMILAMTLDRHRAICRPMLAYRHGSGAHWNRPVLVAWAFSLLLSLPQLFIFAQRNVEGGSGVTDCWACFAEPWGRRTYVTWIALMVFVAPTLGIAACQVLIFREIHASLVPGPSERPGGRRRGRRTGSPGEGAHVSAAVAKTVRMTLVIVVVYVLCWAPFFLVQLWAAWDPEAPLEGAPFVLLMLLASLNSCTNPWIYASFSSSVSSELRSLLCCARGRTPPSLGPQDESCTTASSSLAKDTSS
UniProt Q13224, sequence (whole entry, unmodified, looked up): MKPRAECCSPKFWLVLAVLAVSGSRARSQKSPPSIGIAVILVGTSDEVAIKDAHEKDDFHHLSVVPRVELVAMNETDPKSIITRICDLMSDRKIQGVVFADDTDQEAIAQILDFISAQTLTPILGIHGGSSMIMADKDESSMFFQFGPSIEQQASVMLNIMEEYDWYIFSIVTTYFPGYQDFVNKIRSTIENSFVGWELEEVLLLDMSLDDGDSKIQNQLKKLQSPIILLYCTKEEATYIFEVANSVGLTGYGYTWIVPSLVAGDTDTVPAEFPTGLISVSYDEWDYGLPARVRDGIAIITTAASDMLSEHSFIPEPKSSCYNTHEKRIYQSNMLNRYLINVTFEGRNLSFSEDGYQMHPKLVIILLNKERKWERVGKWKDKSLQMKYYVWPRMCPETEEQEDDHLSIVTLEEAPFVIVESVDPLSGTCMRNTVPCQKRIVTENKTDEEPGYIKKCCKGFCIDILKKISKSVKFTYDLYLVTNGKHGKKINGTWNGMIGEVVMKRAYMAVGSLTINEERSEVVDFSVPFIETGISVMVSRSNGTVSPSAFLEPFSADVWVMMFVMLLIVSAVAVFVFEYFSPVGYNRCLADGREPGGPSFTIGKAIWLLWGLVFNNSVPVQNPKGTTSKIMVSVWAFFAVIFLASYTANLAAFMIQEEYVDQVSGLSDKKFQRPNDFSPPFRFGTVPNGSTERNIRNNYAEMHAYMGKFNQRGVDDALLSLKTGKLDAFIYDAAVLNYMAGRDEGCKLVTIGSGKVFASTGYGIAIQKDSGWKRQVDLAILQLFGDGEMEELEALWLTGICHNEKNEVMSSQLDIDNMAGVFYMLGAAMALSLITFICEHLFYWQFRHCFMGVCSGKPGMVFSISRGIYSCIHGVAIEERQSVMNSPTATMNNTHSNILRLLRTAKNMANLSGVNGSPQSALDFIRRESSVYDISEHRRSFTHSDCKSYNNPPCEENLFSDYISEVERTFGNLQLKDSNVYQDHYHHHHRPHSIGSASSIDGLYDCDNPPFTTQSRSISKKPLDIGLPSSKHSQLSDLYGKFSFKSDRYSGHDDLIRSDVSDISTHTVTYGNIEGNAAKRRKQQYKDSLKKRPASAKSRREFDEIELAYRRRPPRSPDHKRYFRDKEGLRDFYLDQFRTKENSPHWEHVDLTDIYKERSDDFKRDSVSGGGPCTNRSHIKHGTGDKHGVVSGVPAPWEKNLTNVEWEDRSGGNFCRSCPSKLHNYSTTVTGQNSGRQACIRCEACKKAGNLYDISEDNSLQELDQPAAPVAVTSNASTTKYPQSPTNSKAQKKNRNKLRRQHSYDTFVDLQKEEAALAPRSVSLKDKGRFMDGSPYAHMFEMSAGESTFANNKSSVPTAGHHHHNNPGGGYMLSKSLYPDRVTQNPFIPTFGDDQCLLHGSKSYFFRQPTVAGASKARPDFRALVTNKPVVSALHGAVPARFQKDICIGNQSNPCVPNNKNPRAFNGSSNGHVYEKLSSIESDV

COc1cc(N)c(Cl)cc1C(=O)NC1CN2CCC1CC2 (stereo not drawn) — log2 fold change (GPR52 (Homo sapiens, UniProt Q9Y2T5); β-arrestin recruitment, TANGO luminescence; concentration not given; relative to: basal luminescence): -0.21
COc1cc(Br)cc(Br)c1Oc1cc(Br)cc(Br)c1O — apparent Vmax (SULT1E1 (Homo sapiens, UniProt P49888); sulfonation, substrate): 9.16 nmol/min/mg protein
CC=O — turnover number increase (ADH1 (Saccharomyces cerevisiae, UniProt P00330, H49Q); reduction, substrate; pH 7.3; relative to: wild type): 1.6 fold
C[C@H]1CN(c2n[nH]c3nc(N[C@H]4CC[C@H](NS(=O)(=O)CCC(F)(F)F)CC4)ncc23)CCO1 — remaining binding (Protein Aster-A (Homo sapiens, UniProt Q96CP6); Kinobeads competition, refers to: GRAMD1A; 0.032 µM, unit not given; relative to: vehicle): 1.5
C=C(CN(C(=O)c1c(C(F)F)nn(C)c1F)C1CC1)c1ccc(Cl)cc1Cl — reaction velocity (SDHD/SDHC/SDHB (Sus scrofa, UniProt A5GZW8+D0VWV4+Q007T0); enzyme activity, inhibitor, DCIP reduction; pig; 0.1 µM, added: DCIP 5 µM): 0.00206 µM/s and 0.00207 µM/s
Cn1nccc1[C@]1(CNC(=O)c2ccc(F)c(F)c2-c2ccc(C(F)(F)F)cc2)NC(=O)NC1=O — selectivity ratio (Caspase-3 (CASP3, Homo sapiens, UniProt P42574); inhibitor; relative to: CASP3 over target): > 16700
Cc1cn([C@H]2[C@H]([C@H](O)[C@H](O)CO)OC(C(=O)O)=C[C@@H]2O)nn1 — potency relative to DANA (Sialidase-1 (NEU1, Homo sapiens, UniProt Q99519); enzyme activity, inhibitor; relative to: DANA): 14 fold
COc1ccc2[nH]c3c(c2c1)CCN(C)CC3.Cl — Hill coefficient (Nicotinic acetylcholine receptor alpha9/alpha10 (Rattus norvegicus, UniProt P43144+Q9JLB5); ion current, inhibitor, two-electrode voltage clamp; Xenopus laevis oocytes, rat; added: 10 µM acetylcholine): 1.6 ± 0.2
O=C(NS(=O)(=O)/C=C/c1cccs1)c1ccc(F)cc1Br — binding fold change (FABP1; affinity selection mass spectrometry; 100 nM, added: pooled compounds; relative to: other proteins): 48.3
CN1CCN(c2cc(-c3ccncc3)c(-c3ccc4ccccc4c3)nn2)CC1 — activation (AVPR2 (Homo sapiens, UniProt P30518); agonist, FLIPR; 12.5 µM): -0.4%
CCCCCCCC(=O)N[C@H]1CCOC1=O — Emax (sdiA): 105%
Nc1ncc(-c2nc(N3CCOCC3)nc(N3CCOCC3)n2)c(C(F)F)n1 — remaining binding (BRAF (Homo sapiens, UniProt P15056, V600E); KINOMEscan; 10 µM): 42%
O=C(O)COP(=O)(O)O — Ki ratio (TPI1 (Saccharomyces cerevisiae, UniProt P00942, Y208T); enzyme activity, competitive inhibitor, GPDH/NADH-coupled; pH 5.7, 25 °C, ionic strength 0.1 NaCl, added: glyceraldehyde 3-phosphate substrate; relative to: mutant over wild type): 18
CC/C=C\C/C=C\C/C=C\C/C=C\C/C=C\CCCC(=O)O — formation rate (cyp102A1 (Bacillus megaterium, UniProt P14779); substrate, refers to: 17,18-EEQ; 30 s, added: NADPH 0.5 mM): 2.57 ± 0.09 µmol/min/nmol BM3
O=C(O)CCC(=O)C(=O)O — KI over Km (HIF1AN (Homo sapiens, UniProt Q9NWT6, Q147A); cosubstrate; tunnel mutant Q147A): ~20 fold
Clc1ccc(Cl)c(-c2ccccc2Cl)c1 — EC25 (Estrogen receptor (ESR1, Homo sapiens, UniProt P03372); reporter gene, agonist; T47D.luc; 24 h; relative to: estradiol): 5 µM
Nc1nc2c(ncn2[C@@H]2O[C@H](COP(=O)(O)OP(=O)(O)OP(=O)(O)O)[C@@H](O)[C@H]2O)c(=O)[nH]1 — binding entropy ΔS (GTP 3',8-cyclase (moaA, Staphylococcus aureus, UniProt P69848, R266K); isothermal titration calorimetry; concentration not given, 25 °C, R266K mutant, anaerobic): 14.4 cal/mol/K
[2H]c1c([2H])c([C@]2([2H])CCCN2C(=O)C(C)(C)Oc2ccc3cn[nH]c3c2)c([2H])c([2H])c1C([2H])([2H])[2H] — remaining binding (MAPK14 (Homo sapiens, UniProt Q16539); KINOMEscan; 1 µM; relative to: DMSO control): 83%
O=C(O)COc1ccc(Cl)cc1Cl — uptake (SLC22A6 (Homo sapiens, UniProt Q4U2R8); inhibitor, uptake; HEK293 transfected with SLC22A6; 200 µM, added: 4-aminohippuric acid): inhibited
O=C(Nc1cnccc1Cl)N1CCN(Cc2ccc3c(c2)OC(F)(F)O3)CC1 — inhibition of binding (HRH4 (Homo sapiens, UniProt Q9H3N8); radioligand binding; 10 µM, added: [3H]histamine): 5%
CC(C)[C@@H](O)CC[C@@H](C)[C@H]1CC[C@H]2[C@@H]3CC=C4C[C@@H](O)CC[C@]4(C)[C@H]3CC[C@]12C — current response (Glutamate NMDA receptor; GRIN1/GRIN2B (GRIN1/GRIN2B, Homo sapiens, UniProt Q05586+Q13224, S553A); positive allosteric modulator, two-electrode voltage clamp; Xenopus oocytes expressing GluN1-S553A; 10 µM, 0.02% cremophor, added: 100 µM glutamate and glycine; relative to: without compound): 100 ± 9.2%
CCOC(=O)CC(SP(=O)(OC)OC)C(=O)OCC (stereo not drawn) — remaining activity (uncharacterized protein (Anopheles coluzzii, UniProt A0A6E8VQK1); enzyme activity, inhibitor; Sf9 cell homogenate; 2.294 µM, 0.1667 h, added: α-naphthyl acetate substrate; relative to: no inhibitor): 4.85%
O=C(c1ccc(Cl)cc1)N1CCN2C(=O)N(OC(=O)N3CCOc4ccccc43)C(=O)C2C1 (stereo not drawn) — peptide ratio (Actin, aortic smooth muscle (ACTA2, Homo sapiens, UniProt P62736); MS-based ABPP; SW-620 conditioned medium; 10 µM, 1 h, 37 °C; relative to: compound over DMSO, lower = more inhibition): 1.01 and 0.89 and 1.13 and 0.96 and 0.92
CCN(CC)CCCC[C@H](NC(=O)[C@H](CC(C)C)NC(=O)[C@H](C)NC(=O)[C@H](Cc1ccccc1)NC(=O)c1ccc(C(C)(C)C)cc1)C(=O)N[C@@H](CO)C(=O)OC — specific binding (NPY1R (Homo sapiens, UniProt P25929); radioligand binding; 10 µM): 120%
CI — Km (HOL1 (Arabidopsis thaliana, UniProt Q0WP12); substrate, iodide release colorimetric; pH 7.5, sodium phosphate buffer, added: 1 mM SAH): 2790 ± 300 µM
Nc1ncnc2c1ncn2[C@@H]1O[C@H](COP(=O)(O)OP(=O)(O)O)[C@@H](O)[C@H]1O — association constant (Cell cycle histidine kinase CckA, G318A; cytoplasmic region (Caulobacter vibrioides, UniProt Q9X688, G318A); binding, ITC; added: without c-di-GMP): 4860 ± 1720 M⁻¹
O=C(O)C(/C=C/c1ccc(Cl)cc1)=N\Nc1nc(-c2ccccc2)cs1 — selectivity index (ache (Electrophorus electricus, UniProt O42275); Ellman; relative to: IC50 BChE over IC50 AChE): 2.37
Nc1ncnc2c1ncn2[C@@H]1O[C@H](COP(=O)(O)OP(=O)(O)OP(=O)(O)O)[C@@H](O)[C@H]1O — Km (axoneme-bound dynein; substrate; isolated axonemes): 41 ± 3 µM
C#CCCCCNC(=O)CI — reactivity ratio (ATP6V1A (Homo sapiens, UniProt P38606); mass spectrometry profiling; H460 cell lysate; 100 µM over 10 µM, UniProt P38606; relative to: high over low concentration): 0.924
CC1(C)COP(=O)(O)O[C@H]1C(=O)NCCC(=O)NS(=O)(=O)OC[C@H]1O[C@@H](n2ccc(N)nc2=O)[C@H](O)[C@@H]1O — selectivity ratio (phosphopantothenoylcysteine synthetase; enzyme activity; relative to: IC50 human over bacterial): 20 to 740 fold
O=S(=O)(O)C(F)(F)C(F)(F)C(F)(F)C(F)(F)C(F)(F)C(F)(F)C(F)(F)C(F)(F)F — binding fold change (FABP1; affinity selection mass spectrometry; 100 nM, added: pooled compounds; relative to: other proteins): 53.1
CCCCCCCCCC(=O)N[C@H]1CCOC1=O — Emax (sdiA): 78.8%
O=C(NNC(=O)c1csnn1)c1ccc(Cl)cc1 — remaining activity (Acetyl-CoA synthetase (Cryptococcus neoformans, UniProt J9VFT1); 781 nM): 78.1%
COc1ccc(N2C(=O)N(c3c(C)cccc3Cl)Cc3cnc(Nc4ccc(C5CCN(C)CC5)cc4OC)nc32)nc1 — inhibition (DAPK1 (Homo sapiens, UniProt P53355); kinase activity; 0.5 µM): 2%
N[C@@H](Cc1c[nH]c2ccccc12)C(=O)O — ΔH (Transcription attenuation protein MtrB, Δ71 truncation (mtrB, Geobacillus stearothermophilus, UniProt Q9X6J6); isothermal titration calorimetry; 25 °C, one-site model): -18.07 ± 0.07 kcal/mol
Nc1ccncc1 — potentiation (Glutamate receptor 2 (Homo sapiens, UniProt P42262); ion current, positive allosteric modulator, automated patch clamp; HEK293; 30 µM): 84%
